Measured values pooled from the literature.
Lines come from different studies, so protocols differ. ± marks the error that the study gave.

SMILES | cell line | assay | conditions | how to read | endpoint | value
c1cncc(Nc2c3c(nc4ccccc24)CCCC3)c1 | SH-SY5Y | MTT | 50 µM, 1 h pretreatment, 10% FBS, added: H2O2 |  | viability | 61.5 ± 0.64%
CC(C)CC(O)(CC(C)C)c1cn(C(=O)N2CCCC2)nn1 | mouse T-cells | N-terminal labeled proteins, N-terminal enrichment proteomics, refers to: FBXO7 | 1 nM, 6 h | baseline: DMSO | SILAC ratio | 4.27 ± 0.11
CC/C=C\C/C=C\C/C=C\C/C=C\C/C=C\C/C=C\CCC(=O)Nc1ccn(C2OC(CO)C(O)C2(F)F)c(=O)n1 (centres unmarked) | SF-268 | NCI60 screen |  |  | CC50 | 42.3 µM
C1=CCCC=CCC1.F[P-](F)(F)(F)(F)F.[Pt+][c]1ccccc1P(=Nc1ccccc1)(c1ccccc1)c1ccccc1 | Jurkat | flow cytometry | 0.5 µM, 6 h |  | dead cells | ~100%
COC(=O)C1=CO[C@@H](OC(C)=O)[C@@H]2C(Cn3cc(CCCN4C(=O)c5ccccc5C4=O)nn3)=CC[C@H]12 | SK-N-SH | neuroprotection, MTT | 0.15 µM, 24 h, added: 250 µM H2O2 |  | viability | 52.9 ± 0.7%
CC[C@H](C)[C@H]1OC(=O)[C@H](C(C)C)NC(=O)[C@H](C)OC(=O)[C@@H](C(C)C)NC(=O)[C@@H]([C@@H](C)CC)OC(=O)[C@H](C(C)C)NC(=O)[C@H](C)OC(=O)[C@@H](C(C)C)NC(=O)[C@@H](CC(C)C)OC(=O)[C@H](C(C)C)NC(=O)[C@H](C)OC(=O)[C@@H](C(C)C)NC1=O | NCI-460 | cell growth or viability |  |  | GI50 | < 1 ng/mL
CCCCCCCCCCCCCC(=O)NCC(=O)N[C@@H](CCCNC(=N)N)C(=O)N[C@@H](Cc1c[nH]c2ccccc12)C(=O)N[C@@H](CCCCN)C(=O)N[C@H](C(=O)N[C@@H](Cc1ccccc1)C(=O)N[C@@H](CCCCN)C(=O)N[C@@H](CCCCN)C(=O)N[C@H](C(=O)N[C@@H](CCC(=O)O)C(=O)N[C@@H](CCCCN)C(=O)N[C@H](C(=O)NCC(=O)N[C@@H](CCC(N)=O)C(=O)N[C@@H](CC(N)=O)C(=O)N[C@H](C(=O)N[C@@H](CCCNC(=N)N)C(=O)N[C@@H](CC(=O)O)C(=O)NCC(=O)N[C@H](C(=O)N[C@H](C(=O)N[C@@H](CCCCN)C(=O)N[C@@H](C)C(=O)NCC(=O)N1CCC[C@H]1C(=O)N[C@@H](C)C(=O)N[C@H](C(=O)N[C@@H](C)C(=O)N[C@H](C(=O)N[C@H](C(=O)NCC(=O)N[C@@H](CCC(N)=O)C(=O)N[C@@H](C)C(=O)N[C@@H](C)C(=O)N[C@H](C(=O)N[C@H](C(N)=O)[C@@H](C)CC)[C@@H](C)O)C(C)C)C(C)C)C(C)C)C(C)C)[C@@H](C)CC)[C@@H](C)CC)C(C)C)[C@@H](C)CC)[C@@H](C)CC | Jurkat | western blot | 3 µM, 16 h |  | cleaved PARP | > 40%
COC(=O)C1=CO[C@@H](OC(C)=O)[C@@H]2C(Cn3cc(-c4ccc(OC)cc4)nn3)=CC[C@H]12 | SK-N-SH | neuroprotection, MTT | 0.15 µM, 24 h, added: 250 µM H2O2 |  | viability | 66.6 ± 0.7%
CC(C)C[C@@H]1NC(=O)[C@H](CCCNC(=N)N)NC(=O)[C@H](CCCCN)NC(=O)[C@H](CC(=O)O)NC(=O)[C@H](CCCCN)NC(=O)[C@@H](CO)NC1=O | Panc1_A8 | Western blot, refers to: pERK1/2 | 500 nM, added: U0126 10 µM |  | ERK1/2 phosphorylation | decreased
CC(C)c1cnn2c(NCc3ccccc3)cc(N[C@@H](CO)[C@H](O)CO)nc12 | HCT-116 resistant to compound | flow cytometry |  | baseline: parental HCT-116 | ABCB1 expression | 1.7 fold
CCCc1cc(OC)c2c(c1OC)OCO2 | SK-OV-3 | cell growth or viability, MTT | 72 h |  | GI50 | > 250 µM
CC1=CCC23OC2(C)CCC2C(C[N+](C)(C)C)C(=O)OC2C13.[I-] (centres unmarked) | UACC-62 | cell growth or viability, SRB | 8.3 µM |  | inhibition | 63.8%
CSCC[C@H](NC(=O)[C@H](CC(C)C)NC(=O)[C@H](Cc1c[nH]cn1)NC(=O)CNC(=O)[C@@H](NC(=O)[C@H](C)NC(=O)[C@H](Cc1c[nH]c2ccccc12)NC(=O)[C@H](CCC(N)=O)NC(=O)CCCCCNC(=O)CCN(CCNC(=O)c1ccc(F)cc1)CCC(=O)NCCCC[C@@H]1NC(=O)[C@@H](Cc2ccc(O)cc2)NC(=O)[C@H](CC(=O)O)NC(=O)CNC(=O)[C@H](CCCNC(=N)N)NC1=O)C(C)C)C(N)=O [fluorine-18 labelled] | PC-3 |  | 120 min, 37 °C | baseline: added radioactivity | cellular uptake | 4.72 ± 0.36%
COC(=O)C1=CO[C@@H](O)[C@@H]2C(Cn3cc(C(O)(c4ccccc4)c4ccccc4)nn3)=CC[C@H]12 | SK-N-SH | neuroprotection, MTT | 0.3 µM, 24 h, added: 250 µM H2O2 |  | viability | 72.7 ± 2.6%
Cc1cc(C)c(N2CCN(c3c(C)cc(C)cc3C)C2=[Se])c(C)c1.[Cl][Au] | LoVo MDR | MTT |  | baseline: LoVo MDR over LoVo | resistance factor | 1.9
CSCC[C@H](NC(=O)[C@H](CC(C)C)NC(=O)[C@H](Cc1c[nH]cn1)NC(=O)CNC(=O)[C@@H](NC(=O)[C@H](C)NC(=O)[C@H](Cc1c[nH]c2ccccc12)NC(=O)[C@H](CCC(N)=O)NC(=O)CCCCCCCNC(=O)CCC(=O)Nc1ccc(CNC23CNCCNCC(N)(CNCCNC2)CNCCNC3)cc1)C(C)C)C(N)=O [copper-64 labelled] | PC-3 |  | 0 to 60 min |  | initial internalization rate | 2.6 fmol/mg/min
[N]#[Os]([Cl])([Cl])[Cl].c1cnc2c(c1)ccc1cccnc12 | A2780 | immunoblot, refers to: γH2AX, CHK1, CHK2, p53 Ser15 | concentration not given, 72 h |  | DNA damage markers | increased
COC(=O)C1=CO[C@@H](OC(C)=O)[C@@H]2C(Cn3cc(COCc4ccc(OC)c(OC)c4)nn3)=CC[C@H]12 | SK-N-SH | neuroprotection, MTT | 0.3 µM, 24 h, added: 250 µM H2O2 |  | viability | 65.3 ± 0.21%
F[P-](F)(F)(F)(F)F.F[P-](F)(F)(F)(F)F.[Ru+2].c1ccc(-c2ccccn2)nc1.c1ccc(-c2ccccn2)nc1.c1csc(-c2cc3cccnc3c3ncccc23)c1 | SK-MEL-28 | cell viability | visible light | baseline: dark EC50 over light EC50 | phototherapeutic index | > 216
COC(=O)C1=CO[C@@H](OC(C)=O)[C@@H]2C(Cn3cc(CON4C(=O)c5ccccc5C4=O)nn3)=CC[C@H]12 | SK-N-SH | neuroprotection, MTT | 0.075 µM, 24 h, added: 250 µM H2O2 |  | viability | 78.5 ± 0.4%
CN(C)C1=[S+][Au-]2([S]1)[c]1ccccc1P(c1ccccc1)(c1ccccc1)=[N+]2c1ccccc1.F[P-](F)(F)(F)(F)F (centres unmarked) | human PBMC | annexin V flow cytometry | 0.5 µM, 24 h |  | cell death | 17%
COC(=O)C1=CO[C@@H](OC(C)=O)[C@@H]2C(Cn3cc(CCO[Si](C)(C)C(C)(C)C)nn3)=CC[C@H]12 | SK-N-SH | neuroprotection, MTT | 0.6 µM, 24 h, added: 250 µM H2O2 |  | viability | 56.6 ± 0.2%
FC(F)(F)c1ccc(Nc2c3c(nc4ccccc24)CCCC3)cc1 | SH-SY5Y | MTT | 50 µM, 1 h pretreatment, 10% FBS, added: H2O2 |  | viability | 47.6%
COC(=O)C1=CO[C@@H](OC(C)=O)[C@@H]2C(Cn3cc(C4(O)CCCCC4)nn3)=CC[C@H]12 | SK-N-SH | neuroprotection, MTT | 0.3 µM, 24 h, added: 250 µM H2O2 |  | viability | 63.3 ± 1%
O=C1C=CC(=O)c2c(O)ccc(O)c21 | MOLT-3 | cytotoxicity, XTT |  | baseline: IC50 MRC5 over IC50 MOLT-3 | selectivity ratio | 43.6
COC(=O)[C@H](CC(C)C)NC(=O)[C@@H]1CCCN1C(=O)[C@@H](NC(=O)[C@H](CCC(=O)C=[N+]=[N-])NC(=O)OCc1ccccc1)C(C)C | wild-type mouse medium spiny neurons | TUNEL | 50 µM, 24 h after NMDA, baseline subtracted, added: NMDA 500 µM for 10 min |  | apoptotic cells | 9.8 ± 1.4%
C=CCCCCCCCCCOCc1cn(CC2=CC[C@@H]3C(C(=O)OC)=CO[C@@H](OC(C)=O)[C@H]23)nn1 | SK-N-SH | neuroprotection, MTT | 0.075 µM, 24 h, added: 250 µM H2O2 |  | viability | 57.1 ± 0.3%
COC1CC(OC2CCC3(C)C(CCC45OC46CCC(C(C)=O)C6(C)C(OC(C)=O)C(OC(=O)c4ccccc4)C35)C2)OC(C)C1OC1OC(C)C(OC2OC(CO)C(O)C(O)C2O)C(OC)C1O (centres unmarked) | MDA435/LCC6-MDR1 | cell growth, MDR reversal, SRB | 10 µM, added: paclitaxel | baseline: paclitaxel alone over combination | fold reversal of IC50 | 1
CC[C@H](C)[C@H](NC(=O)CNC(=O)[C@H](CCCCN)NC(=O)[C@H](CO)NC(=O)[C@H](CCCCN)NC(=O)CNC(=O)[C@H](CC(=O)O)NC(=O)[C@H](CCCCN)NC(=O)[C@H](CO)NC(=O)[C@@H](NC(=O)[C@H](CC(C)C)NC(=O)[C@H](CCCNC(=N)N)NC(=O)[C@@H](NC(=O)[C@H](CCC(=O)O)NC(=O)[C@H](C)NC(=O)[C@H](CCCNC(=N)N)NC(=O)[C@H](CCCNC(=N)N)NC(=O)[C@H](CCCNC(=N)N)NC(=O)[C@H](CCC(N)=O)NC(=O)[C@H](CCCNC(=N)N)NC(=O)[C@H](CCCNC(=N)N)NC(=O)[C@H](CCCCN)NC(=O)[C@H](CCCCN)NC(=O)[C@H](CCCNC(=N)N)NC(=O)CNC(=O)[C@@H](N)Cc1ccc(O)cc1)[C@@H](C)CC)C(C)C)C(=O)N[C@@H](C)C(=O)N[C@@H](Cc1ccc(O)cc1)C(=O)N[C@H](C(=O)N[C@@H](CCC(=O)O)C(=O)N[C@@H](Cc1ccccc1)C(=O)N[C@@H](CCCCN)C(=O)O)[C@@H](C)CC | HEK293 | RT-PCR, refers to: GADD45A | concentration not given |  | mRNA level | no effect

Repeated from above:
SMILES | cell line | assay | conditions | how to read | endpoint | value
CCCc1cc(OC)c2c(c1OC)OCO2 | SK-OV-3 | cell growth or viability, MTT | 72 h |  | GI50 | > 250 µM
CSCC[C@H](NC(=O)[C@H](CC(C)C)NC(=O)[C@H](Cc1c[nH]cn1)NC(=O)CNC(=O)[C@@H](NC(=O)[C@H](C)NC(=O)[C@H](Cc1c[nH]c2ccccc12)NC(=O)[C@H](CCC(N)=O)NC(=O)CCCCCNC(=O)CCN(CCNC(=O)c1ccc(F)cc1)CCC(=O)NCCCC[C@@H]1NC(=O)[C@@H](Cc2ccc(O)cc2)NC(=O)[C@H](CC(=O)O)NC(=O)CNC(=O)[C@H](CCCNC(=N)N)NC1=O)C(C)C)C(N)=O [fluorine-18 labelled] | PC-3 |  | 120 min, 37 °C | baseline: added radioactivity | cellular uptake | 4.72 ± 0.36%
